Experimental data collected from several papers.
A part holds a random share of what one study measured.

Sample 1
Target: Sal-like protein 4, full length isoform A (SALL4, Homo sapiens, UniProt Q9UJQ4, residues 1-1053)
Chain of UniProt Q9UJQ4 (whole entry, looked up): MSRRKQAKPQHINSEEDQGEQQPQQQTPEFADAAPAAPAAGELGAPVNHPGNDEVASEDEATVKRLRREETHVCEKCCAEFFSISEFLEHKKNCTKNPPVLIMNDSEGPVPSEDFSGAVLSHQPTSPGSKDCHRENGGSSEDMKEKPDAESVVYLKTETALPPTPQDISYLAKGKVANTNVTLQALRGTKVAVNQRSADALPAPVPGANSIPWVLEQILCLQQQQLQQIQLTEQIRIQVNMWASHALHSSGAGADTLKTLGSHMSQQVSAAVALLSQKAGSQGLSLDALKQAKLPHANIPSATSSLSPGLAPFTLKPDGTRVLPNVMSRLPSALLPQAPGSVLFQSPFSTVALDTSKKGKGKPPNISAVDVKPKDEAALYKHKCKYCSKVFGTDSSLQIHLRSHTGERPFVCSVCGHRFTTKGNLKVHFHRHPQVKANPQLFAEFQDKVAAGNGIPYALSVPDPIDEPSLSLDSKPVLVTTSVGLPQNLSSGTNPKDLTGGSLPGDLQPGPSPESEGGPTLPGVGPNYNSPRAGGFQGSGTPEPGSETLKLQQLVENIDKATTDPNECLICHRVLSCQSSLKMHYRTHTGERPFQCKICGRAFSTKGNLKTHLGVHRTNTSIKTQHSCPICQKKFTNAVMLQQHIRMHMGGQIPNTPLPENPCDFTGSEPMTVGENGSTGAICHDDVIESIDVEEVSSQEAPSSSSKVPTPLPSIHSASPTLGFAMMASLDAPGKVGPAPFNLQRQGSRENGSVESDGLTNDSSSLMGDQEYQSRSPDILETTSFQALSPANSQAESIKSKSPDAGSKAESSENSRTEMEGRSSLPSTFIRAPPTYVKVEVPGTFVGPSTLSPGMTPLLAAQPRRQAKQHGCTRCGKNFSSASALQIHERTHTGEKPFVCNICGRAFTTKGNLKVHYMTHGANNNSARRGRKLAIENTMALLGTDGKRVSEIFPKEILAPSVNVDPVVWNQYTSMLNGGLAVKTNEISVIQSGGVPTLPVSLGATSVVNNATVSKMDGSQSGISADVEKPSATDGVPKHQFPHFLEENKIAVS
Technique: universal PBM
Molecule type: double-stranded DNA, one strand shown
Medium: in vitro
Concentration: 600 nM
Notes: 8-mer, flanks averaged, mean of replicates
Direction: higher = stronger binding
For `ACGTGACG`, the E-score was -0.0694.
For `CTGGCAAC`, the E-score was -0.199.
`CTTAATTC` gave an E-score of 0.274.
`ATGTGGTC` has an E-score of 0.0488.
The E-score of `ACAAATCG` is reported as 0.013.
With `TGATTACA` the E-score was 0.299.
`CCTACATC` has an E-score of 0.0338.
For `TCCGAAAA`, the E-score was 0.0247.

Sample 2
Target: Replicase polyprotein 1ab, 3C-like proteinase (rep, Middle East respiratory syndrome-related coronavirus, UniProt K9N7C7)
Observed: enzyme activity
Mode: inhibitor
Concentration: 10 µM
`C=CC(=O)c1ccc2ccccc2c1` gave an inhibition of 26%.
The inhibition of `CC(=O)O/N=C1/C(=O)N(Cc2cc(Cl)ccc2Cl)c2ccc(Cl)cc21` is reported as 46%.
`Oc1ccc2ccccc2c1SSc1c(O)ccc2ccccc12` gave an inhibition of 6%.

Sample 3
Target: Replicase polyprotein 1ab, polymerase (rep, Severe acute respiratory syndrome coronavirus 2, UniProt P0DTD1)
Observed: enzyme activity
Mode: inhibitor
Concentration: 20 µM
With `COc1c(C)c2c(c(O)c1C/C=C(\C)CCC(=O)OCCN1CCOCC1)C(=O)OC2` the inhibition was 0.18%.
With `O=C(/C=C/c1ccc(O)cc1)c1ccc(O)cc1O` the inhibition was 1.17%.
`CNC(=O)N(C)N=O` has an inhibition of 1.6%.
With `Fc1ccc(-n2cc(CCCCN3CCC4(CC3)OCc3ccccc34)c3ccccc32)cc1` the inhibition was -6.15%.
With `Cn1cc(C2=C(c3cn(CCCSC(=N)N)c4ccccc34)C(=O)NC2=O)c2ccccc21` the inhibition was 8.98%.
`O=C1O[C@H](CO)[C@@H](O)[C@H](O)[C@H]1O` gave an inhibition of -2.84%.
The inhibition of `NC(=O)c1ccc(F)c2c1C[C@@H](N(C1CCC1)C1CCC1)CO2` is reported as -0.38%.
With `CC(C)(C)c1cc(C(=O)/C=C/c2ccc(C(=O)O)cc2)cc(C(C)(C)C)c1` the inhibition was 5.95%.
`CCCCN(CCCC)CC(O)c1cc(Cl)cc2c1-c1ccc(Cl)cc1/C2=C/c1ccc(Cl)cc1` (stereo not shown) gave an inhibition of -2.7%.
`COC1(C2=NCCN2)COc2ccccc2O1` (stereo not shown) gave an inhibition of -1.52%.
`Clc1ccc2c(NCCNc3ccnc4cc(Cl)ccc34)ccnc2c1` has an inhibition of 5.03%.
The inhibition of `O=C(O)c1c(Sc2ccccc2)c2cc(Cl)ccc2n1Cc1ccc(Cl)cc1` is reported as 85.7%.
`N#C/C(=C1/SC[C@@H](c2ccc(Cl)cc2Cl)S1)n1ccnc1` gave an inhibition of -6.32%.
`Cc1cccc(C)c1NC(=O)CN1CCCCCC1` gave an inhibition of -0.77%.
`CC(=O)SCC(Cc1ccccc1)C(=O)NCC(=O)OCc1ccccc1` (stereo not shown) has an inhibition of -1.02%.
`CC(C)C[C@H](NC(=O)N1CCCCCC1)C(=O)N[C@H](Cc1cn(C)c2ccccc12)C(=O)N[C@H](Cc1ccccn1)C(=O)O` gave an inhibition of 1.76%.
The inhibition of `O=C(O)c1cccnc1` is reported as 16.6%.
With `c1ccc(COCCCc2c[nH]cn2)cc1` the inhibition was 1.77%.
The inhibition of `Cc1cc(OCCCS(C)(=O)=O)cc(C)c1-c1cccc(COc2ccc3c(c2)OC[C@H]3CC(=O)O)c1` is reported as -14.3%.
For `COc1c(C)cnc(Cn2cnc3c(Cl)nc(N)nc32)c1C`, the inhibition was -16.3%.
`NC(=O)Nc1sc(-c2ccc(F)cc2)cc1C(N)=O` has an inhibition of 5.36%.
The inhibition of `CC(C)[C@@H](C)/C=C/[C@@H](C)[C@H]1CC[C@H]2C3=CC=C4C[C@@H](O)CC[C@]4(C)[C@H]3CC[C@]12C` is reported as -13.2%.
`Cc1ccc(OC[C@@H](O)[C@H](C)NC(C)C)c2c1CCC2` has an inhibition of 2.69%.
`CC(C)NC(=O)N1CC[C@H](NC2=Nc3cc(F)ccc3N(CC(F)F)c3ccc(Cl)cc32)C1` has an inhibition of -1.49%.
`Brc1ccc(NC2C3CC4CC(C3)CC2C4)cc1` (stereo not shown) gave an inhibition of -2.15%.

Sample 4
Target: RNA binding protein fox-1 homolog 2, RRM domain, GST-SBP tag (RBFOX2, Homo sapiens, UniProt O43251-10, residues 100-194)
Technique: RNA Bind-n-Seq
Molecule type: RNA
Medium: in vitro
Concentration: 365 nM
Notes: natural RNA segment, single round, ends assumed
Baseline: no-protein control
Direction: higher = stronger binding
Target sequence (chain): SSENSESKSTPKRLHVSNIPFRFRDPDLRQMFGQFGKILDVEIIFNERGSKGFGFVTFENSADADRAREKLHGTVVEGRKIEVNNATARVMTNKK
`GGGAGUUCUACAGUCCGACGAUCUCAUUUUUUUCAAGUUCUCUCAAGUGUCCCAAAUCAGGGUAGCAAUCUUGUUGCCACAUGUGCAGCAAACAAAGUGGAAGUAUAGAUCUUCUUCUCCCUUAGGGAGGCUCUGGAAUUCUCGGGUGCCAA` — result for “RBNS enrichment (R)”: 0.387.
`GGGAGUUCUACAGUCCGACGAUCGCUGGUGUUGGUACCUGUGGAUUUUUCUAUACUGAUGUUUUCGUUUUGCCAAUAUAAUGAGUAUUACAUUGGCCUUGGGGGACAGAAAGGAGGAAGUUCUGACUUUUCAGUGGAAUUCUCGGGUGCCAA` — result for “RBNS enrichment (R)”: 0.398.
For `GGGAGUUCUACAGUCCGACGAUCCAAGUGGACCCCUUCAAAAGGCUACCGCUUAGCUCCGAACAAAAGGAUCAGUCGUGGGCAGGACUCACAUACCUCAGCUCUGGAGGAGCUAGCACUGUCUGGAAUGGCCUUGGAAUUCUCGGGUGCCAA`, “RBNS enrichment (R)” read 0.37.
`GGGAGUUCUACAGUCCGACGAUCAGCUCAGAGAAAGUUCCAUUUCCGUUCCAGAGGGAAGGGAACCUCCCUAGGUCCUUCCCUGGCUUGUUAUAACGCAAAGCUUGGUUGUUUAUGCAACUCUAUCUUAAGAAUGGAAUUCUCGGGUGCCAA` — result for “RBNS enrichment (R)”: 0.437.
For `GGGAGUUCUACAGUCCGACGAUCAGGAACUGCGCCCUGGAAAGGGCUCCCCGAAGUUCUAGGUGGCCUUGACCUGACACUUGCAUUUUCUAGGCCACUCUUUGGGGUGGCUGAGAAUCAUGACAGACCCUCUGUGGAAUUCUCGGGUGCCAA`, “RBNS enrichment (R)” read 0.283.
For `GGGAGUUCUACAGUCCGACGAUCUGAUUCAACAGAUUCAAACUUCCUACAGCCUUCUACUGAUGUCUUACAAGCUCUUGCCUCUGUGCCUUUCUCAUGCUAUUCUUUUUGCUUAGAUUGCUCUUUGGUCCCAGUGGAAUUCUCGGGUGCCAA`, “RBNS enrichment (R)” read 0.42.
For `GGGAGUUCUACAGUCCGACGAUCGUCCACUGAGCCACAGUACCAGCCCGGGGAGAACCUUAGGGACUGUGUGCGCAGAACUGUCACCUCUAGGCUUCCGGGUGUUGCCUCCGAUGCACCUGCCUCCCUUCAUCUGGAAUUCUCGGGUGCCAA`, “RBNS enrichment (R)” read 0.299.
`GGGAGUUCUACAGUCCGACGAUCAAUAAUGACAAUUUAUGAAUUUGUGUUUCAAAUUGAUAAAAUAUUUAGGUACAAAUAACAAGACUAAUAAUAUUUUCUUAUUUAAAAAAAGCAUGGGAAGAUUUUUAUUUUGGAAUUCUCGGGUGCCAA`: “RBNS enrichment (R)” 1.07.

Sample 5
Target: Histone acetyltransferase KAT6A, winged helix 1, GST fusion (KAT6A, Homo sapiens, UniProt Q92794, residues 1-85)
Technique: protein binding microarray
Molecule type: double-stranded DNA, one strand shown
Medium: in vitro
Concentration: not given
Notes: 8-mer, flanks averaged, mean of 2 arrays, mostly near background
Baseline: not given
Direction: higher = stronger binding
Residues (chain): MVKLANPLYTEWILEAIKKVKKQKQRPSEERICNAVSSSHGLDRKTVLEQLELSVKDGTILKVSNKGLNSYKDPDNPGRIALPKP
`CTCTCGTC` has an E-score of -0.127.
With `CATCTATA` the E-score was -0.0904.
`CGGCGTAA` gave an E-score of 0.319.
With `CAACAAAA` the E-score was -0.143.
For `AACGGACA`, the E-score was 0.11.
`AGCTACCG` gave an E-score of 0.125.
The E-score of `CATCACTA` is reported as -0.278.
`ATGGACGG` gave an E-score of 0.204.

Sample 6
Cell line: HEK-293T/ACE2
Concentration: 10 µM
Time: 16 h
Baseline: vehicle
For `CO/N=C(\C(=O)N[C@@H]1C(=O)N2C(C(=O)O)=C(COC(C)=O)CS[C@H]12)c1csc(N)n1`, the viability was 99.3%.
`CC1Cc2ccccc2N1NC(=O)c1ccc(Cl)c(S(N)(=O)=O)c1` (stereo not shown) gave a viability of 103%.
The viability of `NCC1(CC(=O)O)CCCCC1` is reported as 100%.

Excerpt of the above (sample 5):
With `CATCTATA` the E-score was -0.0904.
`CGGCGTAA` gave an E-score of 0.319.
With `CAACAAAA` the E-score was -0.143.
For `AACGGACA`, the E-score was 0.11.
